Measurements pooled from the literature.
Compare with care: the assays were run in different laboratories. ± marks the error that the study gave.

Sequences of proteins named here, by UniProt entry; tags and fusion partners are left off.
UniProt P10635, whole entry: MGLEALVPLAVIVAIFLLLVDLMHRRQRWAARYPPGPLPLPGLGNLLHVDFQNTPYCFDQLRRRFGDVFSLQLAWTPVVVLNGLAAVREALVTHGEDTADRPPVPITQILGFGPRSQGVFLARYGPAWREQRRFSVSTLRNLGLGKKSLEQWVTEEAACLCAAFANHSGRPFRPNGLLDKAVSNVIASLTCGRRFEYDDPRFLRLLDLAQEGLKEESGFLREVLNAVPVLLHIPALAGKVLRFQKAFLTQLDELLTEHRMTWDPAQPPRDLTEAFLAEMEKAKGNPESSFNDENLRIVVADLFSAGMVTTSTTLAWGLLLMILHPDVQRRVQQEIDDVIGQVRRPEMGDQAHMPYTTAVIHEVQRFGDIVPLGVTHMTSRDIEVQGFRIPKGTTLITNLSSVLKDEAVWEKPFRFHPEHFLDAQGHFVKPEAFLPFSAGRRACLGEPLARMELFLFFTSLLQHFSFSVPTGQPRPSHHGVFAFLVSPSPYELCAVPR
UniProt P33261, whole entry: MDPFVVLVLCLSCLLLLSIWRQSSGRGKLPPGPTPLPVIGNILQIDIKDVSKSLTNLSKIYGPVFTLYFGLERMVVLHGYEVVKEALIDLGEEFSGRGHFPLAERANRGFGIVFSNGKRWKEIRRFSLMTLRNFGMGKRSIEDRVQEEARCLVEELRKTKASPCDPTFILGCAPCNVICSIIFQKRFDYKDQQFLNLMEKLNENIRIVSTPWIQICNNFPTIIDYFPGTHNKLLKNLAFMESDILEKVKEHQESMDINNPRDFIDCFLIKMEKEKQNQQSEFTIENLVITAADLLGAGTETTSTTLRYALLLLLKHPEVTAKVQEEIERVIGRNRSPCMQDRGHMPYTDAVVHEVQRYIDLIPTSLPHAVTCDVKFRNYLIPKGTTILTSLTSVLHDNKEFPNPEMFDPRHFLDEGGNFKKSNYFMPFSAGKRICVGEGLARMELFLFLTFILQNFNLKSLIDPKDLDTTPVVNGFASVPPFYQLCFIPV

For `COC(=O)[C@@H]1C(C=Nc2cncnc2N)=Cc2cc3c(cc2[C@H]1c1cc(OC)c(OC)c(OC)c1)OCO3`, the CC50 was 32.4 ± 0.6 µM (HepG2; Alamar Blue; 48 h).
For `Cc1cc(SCc2sc(-c3ccc4cnn(C)c4c3)nc2C)ccc1OCC(=O)O`, the CC50 was greater than 100 µM (HEK293T; 18 h).
`COc1cc([C@@H]2c3cc4c(cc3[C@](O)(C3(O)CCOCC3)[C@H]3COC(=O)[C@H]23)OCO4)cc(OC)c1OC` has a CC50 of greater than 100 µM (HepG2; Alamar Blue; 48 h).
The inhibition of `COc1ccc(CC(=O)OCc2ccc(-n3cccn3)cc2)cc1F` is reported as 4.3% (Cytochrome P450 2D6 (CYP2D6, Homo sapiens, UniProt P10635); inhibitor; 10 µM).
The CC50 of `Cc1cc(SCc2sc(-c3c(Cl)cccc3Cl)nc2C)ccc1OCC(=O)O` is reported as greater than 100 µM (HEK293T; 18 h).
For `CCCSc1nc(N[C@@H]2C[C@H]2c2ccc(F)c(F)c2)c2nnn([C@@H]3C[C@H](O)[C@@H](O)[C@H]3O)c2n1`, the AUC was 30.5 µM·h (rat, female, plasma; oral, 60 mg/kg/day ticagrelor, week 26).
The inhibition of `Cc1n[nH]c(C)c1CCOC(=O)c1cccc2c1oc(=O)n2C` is reported as 6.3% (Cytochrome P450 2C19 (CYP2C19, Homo sapiens, UniProt P33261); inhibitor; 10 µM).
For `Cc1cc(SCc2sc(-c3cccc([S+](C)[O-])c3)nc2C)ccc1OCC(=O)O` (stereo not drawn), CC50 read “not toxic” (HEK293T; 18 h).
The Tmax of `Nc1ncc(-c2ccc3ncnc(N4CCc5cc(F)c(Cl)cc54)c3c2)cn1` is reported as 1 h (CD1 mouse, brain; intraperitoneal, 50 mg/kg).
`CC(C)n1nnc(-c2cc(O)cc(Nc3ncnn4ccc(CN5CCC(N)CC5)c34)c2)n1` — result for “total brain concentration”: 0.06 ± 0.02 µM (mouse, brain; subcutaneous, 30 mg/kg, 90 min).
The CC50 of `Cc1cc(SCc2sc(-c3ccc(F)c(F)c3F)nc2C)ccc1OCC(=O)O` is reported as greater than 80 µM (HEK293T; 18 h).
`COc1cc([C@@H]2c3cc4c(cc3C=C(C=O)[C@H]2C(=O)OCCCn2cnc3c(Cl)ncnc32)OCO4)cc(OC)c1OC` has a CC50 of 73.5 ± 11.6 µM (HepG2; Alamar Blue; 48 h).
